Published values gathered from unrelated publications.
Every numbered part comes from another study and shows a few of its results, in no order. Substitutions count along the parent as printed.

Study 1 — target: CCNA2, cyclin fold, Cln2 fusion (human); method: yeast growth competition, sequencing; matrix: yeast; setting: strong parent motif; reference: not given; direction: higher = stronger binding; quantity: normalised enrichment score
Parent: E2F1 docking peptide (human); PPVKRRLDLETDH
PPVKRRLDLELDH [T11L]: 4.52
PPGKRRLDLETDH [V3G]: 0.798
PPVKRRLYLETDH [D8Y]: 3.13
PWVKRRLDLETDH [P2W]: 2.05
PPVKRRLLLETDH [D8L]: 4.22
PPVKRRTDLETDH [L7T]: 0.443
PPVKRRLDLETDE [H13E]: 3.91
PPVKRRLDLPTDH [E10P]: 2.39

Study 2 — method: RNAcompete; form: RNA; matrix: in vitro; tested at: 20 nM; setting: 7-mer, probes averaged, single round; reference: mean of 7-mers; direction: higher = stronger binding; quantity: 7-mer Z-score
Target: PABPC1L2, full length, GST fusion (mouse, UniProt A0ABA7IW68)
Residues (chain): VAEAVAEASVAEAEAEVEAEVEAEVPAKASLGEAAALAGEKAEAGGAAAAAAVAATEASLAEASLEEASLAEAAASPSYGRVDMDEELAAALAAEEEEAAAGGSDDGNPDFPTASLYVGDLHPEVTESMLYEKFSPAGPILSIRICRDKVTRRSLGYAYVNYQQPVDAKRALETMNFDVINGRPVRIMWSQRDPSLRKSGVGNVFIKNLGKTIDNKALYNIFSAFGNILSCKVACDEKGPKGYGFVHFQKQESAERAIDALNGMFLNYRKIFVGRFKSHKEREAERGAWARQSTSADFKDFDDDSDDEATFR
UGGCCAU: -0.273
UGUAUUA: -0.155
UGAUAAU: -0.0681
AAACACA: 3.04
AUCGAAC: -0.0863
AGUGUUU: -0.411
AAGUUUA: 0.0352
CAGGAGC: 0.0932
ACGGUUA: 0.0315
AACCAUA: 0.245
AGACUGU: -0.335

Study 3 — method: RNA Bind-n-Seq; form: RNA; matrix: in vitro; tested at: 100 nM; reference: input RNA pool; direction: higher = stronger binding; quantity: bound/input enrichment
Target: RING finger protein unkempt homolog, zinc fingers 1-6, SBP tag (UNK, Homo sapiens, UniProt Q9C0B0, residues 30-357)
UniProt Q9C0B0, sequence (30-357, looked up): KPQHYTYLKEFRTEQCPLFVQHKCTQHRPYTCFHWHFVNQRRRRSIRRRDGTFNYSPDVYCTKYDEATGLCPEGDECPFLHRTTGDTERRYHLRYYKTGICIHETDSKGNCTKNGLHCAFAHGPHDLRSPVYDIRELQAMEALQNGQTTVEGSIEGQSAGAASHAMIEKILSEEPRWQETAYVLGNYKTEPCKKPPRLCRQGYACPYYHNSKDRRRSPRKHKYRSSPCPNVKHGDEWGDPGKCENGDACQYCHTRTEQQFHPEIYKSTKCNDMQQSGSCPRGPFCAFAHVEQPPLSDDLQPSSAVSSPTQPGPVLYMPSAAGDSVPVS
Setting: RNA with constant flanks, vertebrate orthologous sites, ends assumed
Constant ends, left off below: GGGAGUUCUACAGUCCGACGAUC … CAACAGAGGAUUGAGCAUCA
UUGGGGCCAUACAUACGAAAGGUGUAUCAAAUGCAAAAUGAAACUGUCACUUAAAAUAGGGUUGUUACACUUAAGCUACAAAUAGGUUUCCUUAAACCAGAGCUGCACUGCCCUCGUCUG: 0.355 ratio
AUUCAAACCUGUUGUACCAUGGCCUCAUGUUGAAGGCGUAGAAGUGGACUUAGAGUCUAUUAGAAGAAAAAACAAGGCGAAAAAUGAACAAGAGCGACAUGCUGGUGGAGAUAACCAGAA: 0.307 ratio
UUCAUUGUACUGCAGCCAUCAUCCUCCAUCUAAGCUACGACAGUAGUUACUAAUCUCUGCUGAGAGAAUCAUGUACUAUUAAUACUUUUAUACCAUCUGUUUGGUCAGAUGCCUGAAAUG: 0.837 ratio
AGCCAUUUUUUUCCACGUUUUCUGUAAAUAAUGGAUAAUCAUUUUUAAAAAUUUUAUUUUUAGUGCUGUUUUAGCAAUGUGGAUAGAUCAUAAAUGUACUUGCUGAAUUCAAUCAUUUUU: 0.398 ratio
AGGCUUAGAAAUUGGAGUGGAACCAGAAUCUAGCCCAAGUAAAACAAACAUGAAAUGACCAAAUGAUCACCACACCCAGUACAGCUGCCACUCAGGGUAGAUGCAAAAUAAAGUCAGAAC: 0.411 ratio
UCUAGUACUUAAGCUAGCAACAGUUCUAAAAUCAUAUUUAUUUGUCUGUAUGUUUGUACAUAGUACCAACCUCAUAUUGUUGCAGAUUUCUUUUUUCCAUGAGUUUGAGUUUGGUUUUAU: 0.502 ratio
UCAUUGUACUACAAAAACCAUACUAGUUCUACACUAGCCACCGUGAUAACUAGUCUGCAUAGGUUGAGUCCUUUACUUUUUAAAUGAUUGGCUUUGUUUGAUACCUGAAACAAAUCACAA: 0.702 ratio
CCUCCGGCUUCACACUCUUACAUGAGUGGAUUUUUCUUUUUUUUUUUUUACAUUUUGUAUAGAAAACAAAUUCAUUUAAACAAACUUAUUAUUAUAAUUAUUUUUUACAAUAUAUAUAUA: 2.2 ratio
GAGUGCGUGAACAUCUGCAUAAACUGGGAAGACUUGUACCCUUGGGCUCAUACAGAAACCUAUUUACACUCCAGUUCUAUACGCAGAGCAGUGUAGAUUCUGAGGGACAUCGAGCCUCUC: 0.196 ratio
UCUAGACAGUUUUAAAGAUACUUCCUCCUAGGAUGCUUUGGCCCUUCAUCUAUUUAAUCGUAGCUACAUAUCUAUUUUUUAUAAAUAGCAGUACACCUUCCAAGGGGACUCGCUUGGUGU: 1.62 ratio

Mixed results
PhoQ, residues 284 288 289 292 302 303 SSTLSG
fold induction (PhoP, residues 12 14 15 18 19 VQALL (Escherichia coli, UniProt P23836); Sort-seq, refers to: YFP reporter; E. coli; PhoQ-PhoP variant library, together with: 10 µM Mg2+; reference: high Mg2+ state, higher = stronger signaling): 10.1
